Assay results gathered from unrelated publications.
Each numbered part is a random draw from the data of one study; scales do not carry over between parts.

Set 1
Target: Hepatocyte nuclear factor 3-beta, forkhead domain (FOXA2, Homo sapiens, UniProt Q9Y261, residues 142-269)
Technique: protein-binding microarray
Form: double-stranded DNA, one strand shown
Matrix: in vitro
Tested at: not given
Notes: k-mer, scored over probes, only values ≥0.25
Reading: higher = stronger binding
Target sequence (chain): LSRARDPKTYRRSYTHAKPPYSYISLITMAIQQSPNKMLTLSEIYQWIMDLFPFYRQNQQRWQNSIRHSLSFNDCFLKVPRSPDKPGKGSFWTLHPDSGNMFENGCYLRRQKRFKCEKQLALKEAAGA
| Strand | E-score |
| --- | --- |
| CATAGCAC | 0.251 |
| AACTGATA | 0.258 |
| AACTTAGA | 0.32 |
| ATATAATC | 0.259 |
| ACTATACT | 0.319 |
| GTAATCTA | 0.299 |
| CATACATC | 0.263 |
| AGAAGTAT | 0.269 |
| TATGATAA | 0.295 |
| ATGTGATA | 0.36 |
| CAAAATAC | 0.284 |
| AACATGTG | 0.274 |
| ACACGATA | 0.295 |
| TGTTACAA | 0.307 |
| GTATAAAA | 0.306 |
| CTAGTACA | 0.253 |
| TAACTGTA | 0.307 |
| ACAATTAT | 0.307 |

Set 2
Target: Histone acetyltransferase KAT6A, winged helix 1, GST fusion (KAT6A, Homo sapiens, UniProt Q92794, residues 1-85)
Technique: protein binding microarray
Form: double-stranded DNA, one strand shown
Matrix: in vitro
Tested at: not given
Notes: 8-mer, flanks averaged, mean of 2 arrays, mostly near background
Baseline: not given
Reading: higher = stronger binding
Residues (chain): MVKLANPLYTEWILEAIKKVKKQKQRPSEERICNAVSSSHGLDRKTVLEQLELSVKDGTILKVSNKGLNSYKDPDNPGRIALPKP
| Strand | E-score |
| --- | --- |
| GCCCGCGC | 0.461 |
| CTCCCCGC | 0.294 |
| AAGTCGTG | -0.014 |
| GCGTGATA | 0.16 |
| AGAGGGGA | -0.191 |
| GAACACGA | -0.184 |
| ATTCACTA | -0.283 |
| CGAAGGGA | -0.0418 |
| CTATACGC | 0.176 |
| AGACTCGC | 0.0491 |
| GGTGACAC | -0.0235 |
| TAACCATA | -0.00947 |
| CGACATAC | 0.146 |
| CGGAAAAC | 0.142 |
| AAATCAGG | -0.0618 |
| ATTCGAAC | -0.199 |
| AAGCAGCA | -0.182 |
| CTAAGGGA | -0.0602 |
| ATCGACCA | -0.181 |
| TACTCACA | -0.253 |
| ATAAACTC | -0.146 |

Set 3
Target: Ras GTPase-activating protein-binding protein 1, full length (G3BP1, Homo sapiens, UniProt Q13283)
Sequence of UniProt Q13283 (whole entry, looked up): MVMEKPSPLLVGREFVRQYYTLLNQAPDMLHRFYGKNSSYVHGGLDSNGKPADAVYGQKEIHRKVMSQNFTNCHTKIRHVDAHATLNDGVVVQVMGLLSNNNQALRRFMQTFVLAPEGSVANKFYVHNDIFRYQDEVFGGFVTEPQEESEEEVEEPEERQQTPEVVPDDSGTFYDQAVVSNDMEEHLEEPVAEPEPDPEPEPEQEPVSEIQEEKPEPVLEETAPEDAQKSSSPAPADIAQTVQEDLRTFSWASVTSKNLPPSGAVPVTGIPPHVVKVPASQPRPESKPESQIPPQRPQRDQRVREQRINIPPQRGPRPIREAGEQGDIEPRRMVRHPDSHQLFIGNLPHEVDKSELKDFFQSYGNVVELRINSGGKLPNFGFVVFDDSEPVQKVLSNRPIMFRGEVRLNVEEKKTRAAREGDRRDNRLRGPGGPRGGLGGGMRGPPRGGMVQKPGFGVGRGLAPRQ
Technique: RNA Bind-n-Seq
Form: RNA
Matrix: in vitro
Tested at: 200 nM
Notes: whole 134-nt RNA, ends assumed
Added: 150 mM KCl
Baseline: input library
Reading: higher = stronger binding
Constant ends, left off below: GGGAGUUCUACAGUCCGACGAUC … UGGAAUUCUCGGGUGUCAAGG
| Strand | log2 enrichment |
| --- | --- |
| UGUGCUACACAUCGUAUGUACCGAAUCGGGGUUUUUUUGGGGUUUUUUUGGGGUUUUUUUGGGAAAGUAUUAUGUUACGCCGUUCGGAUC | -0.568 |
| UGGCCCUGGUGGCAUGCGGGGAGGAAGAGGUGGCCUCAUGGAUCGUGGUGAUCCCGGUGGAAUGUUCAGAGGUGGCCGUGGUGGAGACAG | 0.0563 |
| AAGUCCUGUGCUACACAUCGUAUGUACCGAAUCGGAAAAGGGAAAAGGAAAAGGGGAAAGUAUUAUGUUACGCCGUUCGGAUCUGCACUU | -0.906 |
| UGGCCCUGGUUGCAUGCGGGGAGGAAGAGGUGGCCUCAUGGAUCGUGGUGGUCCCGGUGGAAUGUUCAGAGGUGGCCGUGGUGGAGACAG | 0.151 |
| GUCCUGUGCUACACAUCGUAUGUACCGAAUCGGGUUUGGGUUUUUGGGUUUUUUUGGGAAAGUAUUAUGUUACGCCGUUCGGAUCUGCAC | -0.39 |
| UGGGAGGUGGAUUGUGUUUAUUUUUUUAGCUCAUUUCCAGGGGUGGGAAUUUUUUUUUAAUAUGUGUCAUGAAUAAAGUUGUUUUUGAAA | -0.062 |
| CUCAAGUCCUGUGCUACACAUCGUAUGUACCGAAUCGGGGCGGGCGGGGCGGGGAAAGUAUUAUGUUACGCCGUUCGGAUCUGCACUUCC | 1.23 |
| UCCUCAAGUCCUGUGCUACACAUCGUAUGUACCGAAUCGGCGGCGGGGCGGAAAGUAUUAUGUUACGCCGUUCGGAUCUGCACUUCCAGC | -0.285 |
| AGUCCUGUGCUACACAUCGUAUGUACCGAAUCGGAAAAAAAGGUUUGGUUUUUUUGGAAAGUAUUAUGUUACGCCGUUCGGAUCUGCACU | -1.47 |
| UGUAACCUGGGGAUUCUCUCAACUCUCUUGUCCCACACAGACUUCUAUGAGGAAAUCCAGGAGUUUGUGAAAGAUGUCUUUUCACCUAUA | 0.0427 |

Set 4
Target: Centromere-binding protein 1, full length, His-tagged (CBF1, Saccharomyces cerevisiae, UniProt P17106, residues 1-351)
Sequence of UniProt P17106 (whole entry, looked up): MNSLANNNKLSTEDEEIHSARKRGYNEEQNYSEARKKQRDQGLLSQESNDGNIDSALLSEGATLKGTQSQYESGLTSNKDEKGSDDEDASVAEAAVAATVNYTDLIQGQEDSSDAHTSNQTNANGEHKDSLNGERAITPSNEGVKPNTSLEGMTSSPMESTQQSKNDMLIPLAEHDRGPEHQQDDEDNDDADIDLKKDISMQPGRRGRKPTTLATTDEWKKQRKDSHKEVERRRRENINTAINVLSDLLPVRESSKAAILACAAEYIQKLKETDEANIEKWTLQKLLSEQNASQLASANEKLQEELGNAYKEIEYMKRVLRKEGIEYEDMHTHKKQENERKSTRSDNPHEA
Technique: competition protein-binding microarray
Form: double-stranded DNA, one strand shown
Matrix: in vitro
Tested at: 2 µM
Notes: whole 60-bp probe, lowest competitor level
Added: Pho4 competitor, 0.05 µM
Reading: higher = stronger binding
Constant ends, left off below: … GTCTTGATTCGCTTGACGCTGCTG
| Strand | fluorescence intensity [a.u.] |
| --- | --- |
| CTTTCCCGATCTTGAACCGTGGGTGTAGCACATTTG | 81.8 |
| CCTTTTCTTCTTGCGTACGTGCCGATCAATGCGTCG | 97.1 |
| CCCTCCCTTCTCTGCTCCGTGATGGCCATTTCAACC | 95.1 |
| GCCAATATCAAGAAAAACGTGTTGGGGGACGAAAAT | 184 |
| ATATCCGGTATTTTGCCCGTGATGGTTGGTAACTTC | 123 |
| AATGTTTCTTCCCAACAAATGCAAGAAGTCAGAAAG | 83.3 |
| GTCTTGTCTCATTTTCACGTGCCCTTCCCCACTTCA | 1070 |
| TGCGCAACAACTTTACACGTGTTTTTATGTCTAGAA | 1870 |
| AAATTACTAAGTTGCCCCGTGGGTGACGCCGTATGA | 63.3 |
| GATGATGACAAATTCAGCGTGAGGACATCAACTCCC | 74.3 |
| CTTCTGTAAATTTGCTGTGTGGGTGGACGCGCCCCG | 90.3 |
| TGCGCAACAACTTGGTCAGTGGGTGTATGTCTAGAA | 71.6 |
| TTCATTTCCCAGAGCAGCATGACAGCTTGGTTTCTT | 75 |
| CCTTTGCAGTAGCATCACATGAATCGCGAAAGTCTA | 261 |
| GATGCCGAAGATTTCCATGTGGCTGAGGAAGTTAAA | 60.9 |
| TCGCGAGAAACGTTACACGTTGTTTGGATGAAAACA | 98.8 |
| TCTTGAAGGAAACGTCACCTGCGCTTGCCGATGTCT | 93.5 |
| AAAGGGCGAAGTTACACCGTTTTCAAAGGTGGAGTG | 60.9 |
| CTAACGAAGGTTTGGGAAGTGGGTGACAAGCCAAGT | 67.4 |
| GCCCTGTAATGAAGCTGCGTGATGGGACCTGTGCCC | 74.3 |
| TGCGCAACAACTTGGGATGTGGGTGTATGTCTAGAA | 66.4 |
| AAATTACTAAGTTTTCACGTGCGCTACCCCGTATGA | 1010 |
| TGCGCAACAACTTTTCACGTGGAATTATGTCTAGAA | 756 |
| GCAATTCTTAGAGGCCACGTGGGCAGAGAGCGGCGC | 1470 |

A few entries again (set 4):
| Strand | fluorescence intensity [a.u.] |
| --- | --- |
| CCCTCCCTTCTCTGCTCCGTGATGGCCATTTCAACC | 95.1 |
| GCCAATATCAAGAAAAACGTGTTGGGGGACGAAAAT | 184 |
| ATATCCGGTATTTTGCCCGTGATGGTTGGTAACTTC | 123 |
| AATGTTTCTTCCCAACAAATGCAAGAAGTCAGAAAG | 83.3 |
| GTCTTGTCTCATTTTCACGTGCCCTTCCCCACTTCA | 1070 |
| TGCGCAACAACTTTACACGTGTTTTTATGTCTAGAA | 1870 |
| AAATTACTAAGTTGCCCCGTGGGTGACGCCGTATGA | 63.3 |
| GATGATGACAAATTCAGCGTGAGGACATCAACTCCC | 74.3 |
| CTTCTGTAAATTTGCTGTGTGGGTGGACGCGCCCCG | 90.3 |
